Results collected from several papers.
Protocols differ between the studies behind these lines. Several values in a cell are separate wells, animals, samples, runs or records. Numbers after ± are the reported error. Values after ≈ are worked out from the molar mass of the structure shown.
Chain of UniProt P03956 (whole entry, looked up): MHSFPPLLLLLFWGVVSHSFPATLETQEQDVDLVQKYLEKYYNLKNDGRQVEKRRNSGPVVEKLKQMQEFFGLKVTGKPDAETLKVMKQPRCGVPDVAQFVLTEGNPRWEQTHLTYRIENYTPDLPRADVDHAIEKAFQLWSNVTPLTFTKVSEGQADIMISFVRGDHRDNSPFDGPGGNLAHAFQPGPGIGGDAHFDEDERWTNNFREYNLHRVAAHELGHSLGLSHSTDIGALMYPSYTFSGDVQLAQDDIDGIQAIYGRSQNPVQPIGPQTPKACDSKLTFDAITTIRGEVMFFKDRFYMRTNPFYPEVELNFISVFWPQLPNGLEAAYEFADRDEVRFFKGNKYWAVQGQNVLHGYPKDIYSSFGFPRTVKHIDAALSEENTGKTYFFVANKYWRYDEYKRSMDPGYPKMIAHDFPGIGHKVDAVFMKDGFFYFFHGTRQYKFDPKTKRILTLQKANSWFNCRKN
Chain of UniProt P00519 (whole entry, looked up): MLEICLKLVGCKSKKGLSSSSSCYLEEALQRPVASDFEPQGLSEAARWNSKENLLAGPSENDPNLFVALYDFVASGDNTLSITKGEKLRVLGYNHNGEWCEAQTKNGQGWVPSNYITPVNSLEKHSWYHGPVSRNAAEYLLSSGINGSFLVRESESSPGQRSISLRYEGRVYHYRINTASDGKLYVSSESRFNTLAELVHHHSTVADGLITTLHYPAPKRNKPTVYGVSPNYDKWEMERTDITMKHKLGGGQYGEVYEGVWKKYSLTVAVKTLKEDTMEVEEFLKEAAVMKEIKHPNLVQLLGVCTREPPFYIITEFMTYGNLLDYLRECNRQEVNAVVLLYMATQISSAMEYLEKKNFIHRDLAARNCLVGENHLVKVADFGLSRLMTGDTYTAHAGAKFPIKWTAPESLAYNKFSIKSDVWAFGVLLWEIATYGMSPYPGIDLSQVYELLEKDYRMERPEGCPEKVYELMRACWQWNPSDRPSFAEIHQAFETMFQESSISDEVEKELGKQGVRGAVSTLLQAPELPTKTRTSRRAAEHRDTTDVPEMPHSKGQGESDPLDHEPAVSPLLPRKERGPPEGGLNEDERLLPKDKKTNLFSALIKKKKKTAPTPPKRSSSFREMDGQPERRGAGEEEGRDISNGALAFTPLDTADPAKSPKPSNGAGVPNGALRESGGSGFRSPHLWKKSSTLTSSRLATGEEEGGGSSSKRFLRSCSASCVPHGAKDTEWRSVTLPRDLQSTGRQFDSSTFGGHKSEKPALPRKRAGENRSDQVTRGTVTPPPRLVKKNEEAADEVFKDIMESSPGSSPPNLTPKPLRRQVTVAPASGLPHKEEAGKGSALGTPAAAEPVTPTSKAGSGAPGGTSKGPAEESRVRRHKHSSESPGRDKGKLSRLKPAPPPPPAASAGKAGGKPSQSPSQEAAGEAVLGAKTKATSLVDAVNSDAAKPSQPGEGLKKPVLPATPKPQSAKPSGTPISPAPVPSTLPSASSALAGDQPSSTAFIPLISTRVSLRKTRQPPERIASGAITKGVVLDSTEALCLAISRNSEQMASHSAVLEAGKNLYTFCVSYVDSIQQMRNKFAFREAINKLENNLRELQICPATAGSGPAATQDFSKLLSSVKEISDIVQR
Chain of UniProt O94806 (whole entry, looked up): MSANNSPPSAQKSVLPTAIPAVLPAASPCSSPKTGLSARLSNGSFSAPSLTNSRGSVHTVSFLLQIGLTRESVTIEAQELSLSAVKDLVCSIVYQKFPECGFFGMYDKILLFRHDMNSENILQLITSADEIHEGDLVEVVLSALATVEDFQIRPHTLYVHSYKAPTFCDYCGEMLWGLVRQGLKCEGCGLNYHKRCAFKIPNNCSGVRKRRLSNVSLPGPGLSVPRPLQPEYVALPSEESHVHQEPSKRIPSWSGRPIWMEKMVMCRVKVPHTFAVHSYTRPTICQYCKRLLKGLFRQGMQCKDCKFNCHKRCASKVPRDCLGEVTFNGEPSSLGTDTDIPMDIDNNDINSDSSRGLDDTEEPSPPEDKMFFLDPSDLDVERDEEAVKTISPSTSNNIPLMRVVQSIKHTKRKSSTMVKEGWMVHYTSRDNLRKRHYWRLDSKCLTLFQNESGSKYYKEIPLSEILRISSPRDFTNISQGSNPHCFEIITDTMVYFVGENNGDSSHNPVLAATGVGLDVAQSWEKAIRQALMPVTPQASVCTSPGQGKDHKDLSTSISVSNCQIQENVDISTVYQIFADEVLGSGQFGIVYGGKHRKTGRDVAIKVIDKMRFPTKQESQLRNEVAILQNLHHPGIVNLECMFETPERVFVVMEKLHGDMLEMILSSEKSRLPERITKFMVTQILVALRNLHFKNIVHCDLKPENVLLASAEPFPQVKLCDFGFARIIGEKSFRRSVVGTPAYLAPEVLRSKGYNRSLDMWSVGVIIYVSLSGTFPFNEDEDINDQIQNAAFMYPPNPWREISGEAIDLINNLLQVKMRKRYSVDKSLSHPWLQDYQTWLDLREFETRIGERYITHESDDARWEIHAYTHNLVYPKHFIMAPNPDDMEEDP
Chain of UniProt O96017 (whole entry, unmodified, looked up): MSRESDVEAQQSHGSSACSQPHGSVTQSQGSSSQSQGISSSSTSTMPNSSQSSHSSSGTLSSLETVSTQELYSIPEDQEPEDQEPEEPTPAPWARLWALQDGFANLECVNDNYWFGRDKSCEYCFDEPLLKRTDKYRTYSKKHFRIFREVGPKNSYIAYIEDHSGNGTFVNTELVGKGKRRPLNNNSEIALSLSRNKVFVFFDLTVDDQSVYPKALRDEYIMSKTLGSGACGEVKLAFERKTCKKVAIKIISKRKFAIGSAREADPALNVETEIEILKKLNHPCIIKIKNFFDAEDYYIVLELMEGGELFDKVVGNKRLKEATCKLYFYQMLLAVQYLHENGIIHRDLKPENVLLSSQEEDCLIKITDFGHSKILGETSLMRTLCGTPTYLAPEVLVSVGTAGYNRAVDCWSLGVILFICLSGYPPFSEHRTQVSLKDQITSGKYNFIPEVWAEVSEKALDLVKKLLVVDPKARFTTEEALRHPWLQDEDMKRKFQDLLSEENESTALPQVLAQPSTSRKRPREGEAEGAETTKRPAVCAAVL

SMILES | tested on | test | test system | conditions | scale | endpoint | value
[O-][N+]1=C(c2ccccc2)C2=NCCCN2c2ncccc21 | Clostridioides difficile | microbial growth |  |  |  | MIC90 | 0.5 µg/mL
CCOC(=O)C1(Cc2ccc(C)cc2)Oc2cc(F)ccc2N(Cc2ccc(C)cc2)C1=O (stereo not drawn) | Setaria viridis | fresh weight, greenhouse postemergence |  | postemergence, 150 g ai/ha, 21 days |  | inhibition | 66 ± 1.63%
COc1ccccc1-c1n[nH]c2nc(NC3CCN(C(=O)Cc4ccc(F)cc4F)CC3)ncc12 |  | bead binding, competition bead pull-down, item: LINJ.36.5160 | Leishmania donovani axenic amastigote extract | 10 µM | relative to: vehicle | relative abundance | 0.68
CC(C)(C)C(=O)OCOP(=O)(OCOC(=O)C(C)(C)C)C1CCCN(O)C1=O (stereo not drawn) | PC-3 |  |  |  |  | CC50 | > 100000 nM
CC(=O)N[C@@H](CC(C)C)C(=O)N[C@H](C(=O)N[C@@H](Cc1ccccc1)C(=O)N[C@]1(C)CCCCCC/C=C/CCC[C@@](C)(C(=O)N[C@@H](C)C(=O)N[C@@H](C)C(=O)N[C@@H](C)C(=O)N[C@@H](C)C(=O)N[C@@H](C)C(=O)N[C@H](C)C(N)=O)NC(=O)[C@H](CC(C)C)NC(=O)[C@H](CCCCNC(=O)CCNC(=O)C[C@@H]2N=C(c3ccc(Cl)cc3)c3c(sc(C)c3C)-n3c(C)nnc32)NC(=O)[C@H](C)NC(=O)[C@H](Cc2c[nH]c3ccccc23)NC(=O)[C@H](Cc2ccc(O)cc2)NC(=O)[C@H](C)NC1=O)[C@@H](C)O |  |  | C57BL/6 mice, blood | intravenous, 3 mg/kg twice weekly, 2 weeks | relative to: leukocytes | neutrophils | 13%
CS(C)(=O)=Nc1ccc(-c2ccc(-c3nc4cc(O[C@@H]5CO[C@H]6[C@@H]5OC[C@H]6O)[nH]c4cc3F)cc2)cc1 | MMP1 (Homo sapiens, UniProt P03956) | enzyme activity, inhibitor |  | 10 µM |  | inhibition | 71%
CC[C@H](C)[C@H](NC(=O)[C@H](CO)NC(=O)[C@H](Cc1ccc(O)cc1)NC(=O)[C@H](Cc1ccc(O)cc1)NC(=O)[C@H](CC(N)=O)NC(=O)CNC(=O)[C@H](CO)NC(=O)[C@H](Cc1ccc(O)cc1)NC(=O)[C@H](CO)NC(=O)[C@H](CO)NC(=O)[C@H](CC(N)=O)NC(=O)COCCOCCNC(=O)CN1CCN(CC(=O)O)CCN(CC(=O)O)CCN(CC(=O)O)CC1)C(=O)N[C@@H](CC(C)C)C(N)=O [copper-64 labelled] |  | dynamic PET | tamoxifen-induced PDAC mouse model, metastases | 22.5 min, CLDN4-expressing tumours |  | maximum metastasis uptake | 18 %IA/cc
CN(C)c1nc(NCc2cc(Cl)c(F)cc2F)c(/N=N/c2ccc(Cl)cc2)c(N(C)C)n1 | Ostrinia furnacalis | leaf dipping |  | 200 mg/L, 96 h |  | mortality | 50 ± 10%
COc1ccccc1-c1n[nH]c2nc(N[C@H]3CC[C@H](NS(=O)(=O)CC(C)C)CC3)ncc12 |  | bead binding, competition bead pull-down, item: LMJF.28.2750 | Leishmania donovani extract | 10 µM | relative to: vehicle | relative abundance | 0.85
CC[C@H](C)[C@@H]1NC(=O)[C@H](CO)NC(=O)CC(CCCCN)NC(=O)[C@@H]2CSSC[C@@H](C(=O)N[C@@H](Cc3ccc(O)cc3)C(N)=O)NC(=O)[C@H](CCCCN)NC(=O)[C@@H]3CSSC[C@H](NC(=O)[C@H](CCCNC(=N)N)NC(=O)CC(CC(C)C)NC(=O)[C@H](CC(=O)O)NC(=O)[C@H](CC(=O)O)NC(=O)[C@H](CCC(=O)O)NC(=O)[C@H](CC(N)=O)NC(=O)[C@H](Cc4c[nH]c5ccccc45)NC(=O)[C@@H]4CCCN4C(=O)CNC(=O)[C@H](CC(N)=O)NC(=O)[C@@H](NC(=O)CNC(=O)[C@H](Cc4ccccc4)NC(=O)CN)CSSC[C@H](NC(=O)[C@H](Cc4ccc(O)cc4)NC(=O)CNC(=O)CNC(=O)[C@H](CCCCN)NC(=O)[C@H](Cc4ccc(O)cc4)NC(=O)CNC(=O)[C@H](CCCCN)NC1=O)C(=O)N[C@@H](C)C(=O)N[C@@H](CCCCN)C(=O)NCC(=O)NCC(=O)N[C@@H](Cc1ccccc1)C(=O)N[C@@H](C(C)C)C(=O)N3)C(=O)N[C@@H](Cc1c[nH]cn1)C(=O)NC(CC(N)=O)CC(=O)N[C@@H](Cc1c[nH]cn1)C(=O)N2 (stereo partly drawn) | Streptococcus pneumoniae |  | BS-441 | 24 h, 37 °C, 99.9% killing |  | MBC | 4 µM (≈ 17.8 µg/mL)
C#Cc1ccc(C[C@@H]2NC(=O)CSCCNC(=O)[C@H](C(C)(C)O)NC(=O)[C@H](CC(C)C)NC(=O)[C@H](CCC3CCCCC3)NC(=O)[C@H](CC(C)C)NC(=O)[C@H](C(C)C)NC(=O)[C@]3(C)CCCN3C(=O)[C@H](C(C)C)NC2=O)cc1 | HIV-1 | viral replication | MT4 |  | relative to: cell EC50 over protease IC50 | EC50/IC50 ratio | 249
CC(C)C[C@H](NC(=O)[C@@H](N)CO)C(=O)N[C@@H](Cc1c[nH]c2ccccc12)C(=O)N[C@@H](CCC(=O)O)C(=O)N[C@@H](CC(N)=O)C(=O)N[C@@H](Cc1ccccc1)C(=O)N[C@@H](CCCCN)C(N)=O | Gram-positive bacteria |  |  |  |  | geometric mean MIC | 256 µM
O=C1NC2(CC2)COc2ncc(F)cc2[C@H]2COCCN2c2ccn3ncc1c3n2 |  |  | Sprague-Dawley rat, female, liver | oral, 5 mg/kg/day, 4 weeks, end of treatment |  | organ-to-brain weight ratio | 650 ± 79.5%
CC(C)[C@H]1NC(=O)C[C@H]2/C=C/CCSSC[C@@H](NC1=O)C(=O)N[C@H](Cc1cccc3ccccc13)C(=O)NCC(=O)O2 | ABL1 (Homo sapiens, UniProt P00519) | enzyme activity, inhibitor |  | 10 µM |  | inhibition | -1.2%
CC(=O)O[C@@H]1C[C@@H](C)O[C@H]2O[C@@H]3C[C@@H]4CC[C@@H]5[C@H](CC[C@]6(C)[C@@H](C7=CC(=O)OC7)CC[C@]56O)[C@@]4(C=O)C[C@H]3O[C@]21O | Schistosoma mansoni | viability, microscopic viability score | adult worms | 72 h |  | IC50 | 340 nM and 420 nM
CC[C@H](C)CCCCC(=O)N[C@@H](CCN)C(=O)N[C@H](C(=O)N[C@@H](CCN)C(=O)N[C@H]1CCNC(=O)[C@H]([C@@H](C)O)NC(=O)[C@H](CCN)NC(=O)[C@H](CCN)NC(=O)[C@H](CC(C)C)NC(=O)[C@@H](CC(C)C)NC(=O)[C@H](CCN)NC1=O)[C@@H](C)O | Escherichia coli | daily serial passaging | ATCC 8739 | highest sub-MIC, 2 days | relative to: initial MIC | MIC fold change | 1.05
CC(C)[C@H]1NC(=O)[C@H](Cc2ccccc2)NC(=O)[C@@H](C(C)C)NC(=O)[C@@H](C)NC(=O)[C@@H](CO)NC(=O)[C@@H](Cc2c(-c3ccc(-c4ccc5ccccc5c4)cc3)[nH]c3ccccc23)NC(=O)[C@@H](CO)NC1=O | Mycobacterium marinum |  |  |  |  | MIC90 | > 100 µM
FC(F)(F)c1cccc(CNc2nc(NC3CCN(Cc4ccccc4)CC3)c3nc[nH]c3n2)c1 | Cryptococcus neoformans | mRNA level, RNA-seq, item: MIPS CNAG_01539 |  | 48 µg/mL, 3 h | relative to: untreated | fold change | 3.81
CC(C)[C@H]1NC(=O)[C@H](Cc2ccccc2)NC(=O)[C@@H](C(C)C)NC(=O)[C@@H](C)NC(=O)[C@H](C)NC(=O)[C@@H](Cc2c(-c3ccc(-c4ccc5ccccc5c4)cc3)[nH]c3ccccc23)NC(=O)[C@@H](C)NC1=O | Mycobacterium marinum |  |  |  |  | MIC90 | > 100 µM
CCN(CC)CCO.O=C(O)C(Cl)Cl | Solanum nigrum | herbicidal activity |  | 15 mg/mL, 21 days, pre-emergence greenhouse |  | inhibition | 0%
CC(=O)CCC1C(=O)NC(C(C)C)C(=O)NC(Cc2cc(O)cc(F)c2)C(=O)N2CCCC(N2)C(=O)OC(C(C)=CC=CC(=O)N2CCCCO2)CC=CC=CC(O)C(C)C1O (stereo not drawn) | Hepatitis C virus | viral replication | Huh7, Con1 replicon | 40% human serum |  | EC50 | 13 ± 2 nM
CN1CCCCC1C(=O)NC(Cc1ccc(-c2ccccc2)cc1)B(O)O (stereo not drawn) | Plasmodium vivax | ex vivo | Brazilian field isolates | range limit |  | IC50 | 7 to 68 nM
Cc1cc(C(=O)Nc2nc3cccc(C)c3n2[C@H]2CCCCN(C(=O)/C=C/CN(C)C)C2)ccn1 | Trypanosoma brucei | propidium iodide flow cytometry | bloodstream form | concentration not given, 48 h |  | cells in sub-G0 phase | 4.47%
CN(C)c1nc(NCc2cccc3ccccc23)c(/N=N/c2ccc(Cl)cc2)c(N(C)C)n1 | Ostrinia furnacalis | leaf dipping |  | 200 mg/L, 96 h |  | mortality | 73.3 ± 5.8%
CC(C)(C)OC(=O)N1CCN(S(=O)(=O)c2ccc(-c3ccc4ncnc(Nc5ccc(OCc6cccc(F)c6)c(Cl)c5)c4c3)cc2)CC1 | Trypanosoma cruzi | intracellular amastigote growth | NIH 3T3, Tulahuen, β-galactosidase-expressing | 10 µM, 96 h |  | inhibition | 5%
CC[C@H](C)[C@@H]1NC(=O)[C@H](CO)NC(=O)C(C)(CCCCN)NC(=O)[C@@H]2CSSC[C@@H](C(=O)N[C@@H](Cc3ccc(O)cc3)C(N)=O)NC(=O)[C@H](CCCCN)NC(=O)[C@@H]3CSSC[C@H](NC(=O)[C@H](CCCNC(=N)N)NC(=O)C(C)(CC(C)C)NC(=O)[C@H](CC(=O)O)NC(=O)[C@H](CC(=O)O)NC(=O)[C@H](CCC(=O)O)NC(=O)[C@H](CC(N)=O)NC(=O)[C@H](Cc4c[nH]c5ccccc45)NC(=O)C(C)(CC)NC(=O)CNC(=O)[C@H](CC(N)=O)NC(=O)[C@@H](NC(=O)CNC(=O)[C@H](Cc4ccccc4)NC(=O)CN)CSSC[C@H](NC(=O)[C@H](Cc4ccc(O)cc4)NC(=O)CNC(=O)CNC(=O)[C@H](CCCCN)NC(=O)[C@H](Cc4ccc(O)cc4)NC(=O)[C@H]4CCCN4C(=O)[C@@H]4CCCN4C1=O)C(=O)N[C@@H](C)C(=O)N[C@@H](CCCCN)C(=O)N1CCC[C@@H]1C(=O)NCC(=O)N[C@@H](Cc1ccccc1)C(=O)N[C@@H](C(C)C)C(=O)N3)C(=O)N[C@@H](Cc1c[nH]cn1)C(=O)NC(C)(C)C(=O)N[C@@H](Cc1c[nH]cn1)C(=O)N2 (stereo partly drawn) | Streptococcus pneumoniae |  | BS-442 | 24 h |  | MBC | 1 µM (≈ 4.46 µg/mL)
O=CCNCCOn1c(=O)n(OCCNCCO)c(=O)n(OCCNCCOn2c(=O)n(OCCNCCO)c(=O)n(OCCNCCO)c2=O)c1=O | Proteus mirabilis | broth microdilution |  |  |  | MLC | 8 ± 2 µg/mL (≈ 10.4 µM)
CN(C)[C@H]1C[C@@]23CC[C@@]4(O2)C(=CC[C@]2(C)[C@@H](c5ccc6ccncc6c5)CC[C@H]24)C=C3[C@@H](O)[C@@H]1O | PRKD3 (Homo sapiens, UniProt O94806) | ATP probe labelling, inhibitor, KiNativ profiling |  | 0.1 µM |  | inhibition | -5.1%
[O-][N+]1=C(c2ccc(Cl)cc2)C2=NCCCCN2c2ccccc21 | Clostridioides difficile | microbial growth |  |  |  | MIC50 | 2 µg/mL (≈ 6.14 µM)
O=C1NC(=O)c2c1c1cc(F)c[n+]3c1c1c2c2cc(O)ccc2[n]1[Ru-4]312([N]=C=S)[S+]3CC[S+]1CC[S+]2CC3 (stereo not drawn) | CHEK2 (Homo sapiens, UniProt O96017, R145W) | enzyme activity |  | 100 nM, human enzyme, with: 10 µM ATP | relative to: untreated | remaining activity | 33%
